# Results pooled from the literature.
# Lines come from different studies, so protocols differ. ± gives the spread as reported.
# SLC47A2: Multidrug and toxin extrusion protein 2 (SLC47A2, Homo sapiens, UniProt Q86VL8)
# Chain of UniProt Q86VL8 (whole entry, looked up): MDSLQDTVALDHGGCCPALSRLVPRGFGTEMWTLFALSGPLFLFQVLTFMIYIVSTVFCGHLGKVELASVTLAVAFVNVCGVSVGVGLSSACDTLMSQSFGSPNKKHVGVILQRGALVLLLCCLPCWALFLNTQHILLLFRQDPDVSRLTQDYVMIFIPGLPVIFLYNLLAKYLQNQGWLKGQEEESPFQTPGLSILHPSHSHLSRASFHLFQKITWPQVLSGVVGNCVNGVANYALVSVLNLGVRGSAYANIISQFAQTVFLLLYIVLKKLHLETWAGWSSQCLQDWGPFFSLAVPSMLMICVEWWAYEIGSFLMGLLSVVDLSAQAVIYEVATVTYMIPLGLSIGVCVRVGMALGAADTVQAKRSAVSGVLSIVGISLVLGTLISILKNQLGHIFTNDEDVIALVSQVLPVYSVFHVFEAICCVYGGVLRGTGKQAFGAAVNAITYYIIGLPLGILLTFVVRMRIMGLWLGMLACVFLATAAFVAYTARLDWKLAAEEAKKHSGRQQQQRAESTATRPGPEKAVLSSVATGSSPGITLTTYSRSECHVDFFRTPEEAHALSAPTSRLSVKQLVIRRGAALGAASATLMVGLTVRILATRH
# Tumor necrosis factor receptor superfamily member 9/Nectin-4: Tumor necrosis factor receptor superfamily member 9/Nectin-4 (Homo sapiens, UniProt Q07011+Q96NY8)
# Chain of UniProt Q07011 (whole entry, looked up): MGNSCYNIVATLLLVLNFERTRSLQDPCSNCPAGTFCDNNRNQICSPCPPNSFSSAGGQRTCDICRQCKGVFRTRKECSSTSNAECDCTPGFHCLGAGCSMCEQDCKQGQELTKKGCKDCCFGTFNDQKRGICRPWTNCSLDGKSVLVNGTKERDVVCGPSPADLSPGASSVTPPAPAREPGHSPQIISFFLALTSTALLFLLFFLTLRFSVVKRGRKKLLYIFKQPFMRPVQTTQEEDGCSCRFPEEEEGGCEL
# Chain of UniProt Q96NY8 (whole entry, looked up): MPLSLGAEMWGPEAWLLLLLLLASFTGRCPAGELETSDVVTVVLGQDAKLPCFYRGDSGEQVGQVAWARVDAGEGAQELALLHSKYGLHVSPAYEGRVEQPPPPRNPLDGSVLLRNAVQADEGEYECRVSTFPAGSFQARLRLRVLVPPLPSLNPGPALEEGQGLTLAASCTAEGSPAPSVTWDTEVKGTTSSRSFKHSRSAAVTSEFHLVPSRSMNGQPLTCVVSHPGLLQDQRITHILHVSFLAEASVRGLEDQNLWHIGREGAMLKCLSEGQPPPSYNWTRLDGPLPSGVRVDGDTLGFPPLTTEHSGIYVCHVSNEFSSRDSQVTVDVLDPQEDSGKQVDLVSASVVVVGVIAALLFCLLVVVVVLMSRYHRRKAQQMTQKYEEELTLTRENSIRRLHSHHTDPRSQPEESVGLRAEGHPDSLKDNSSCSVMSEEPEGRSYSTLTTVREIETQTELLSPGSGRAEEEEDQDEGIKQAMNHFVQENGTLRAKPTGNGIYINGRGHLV
# Chain of UniProt Q9UNQ0 (whole entry, looked up): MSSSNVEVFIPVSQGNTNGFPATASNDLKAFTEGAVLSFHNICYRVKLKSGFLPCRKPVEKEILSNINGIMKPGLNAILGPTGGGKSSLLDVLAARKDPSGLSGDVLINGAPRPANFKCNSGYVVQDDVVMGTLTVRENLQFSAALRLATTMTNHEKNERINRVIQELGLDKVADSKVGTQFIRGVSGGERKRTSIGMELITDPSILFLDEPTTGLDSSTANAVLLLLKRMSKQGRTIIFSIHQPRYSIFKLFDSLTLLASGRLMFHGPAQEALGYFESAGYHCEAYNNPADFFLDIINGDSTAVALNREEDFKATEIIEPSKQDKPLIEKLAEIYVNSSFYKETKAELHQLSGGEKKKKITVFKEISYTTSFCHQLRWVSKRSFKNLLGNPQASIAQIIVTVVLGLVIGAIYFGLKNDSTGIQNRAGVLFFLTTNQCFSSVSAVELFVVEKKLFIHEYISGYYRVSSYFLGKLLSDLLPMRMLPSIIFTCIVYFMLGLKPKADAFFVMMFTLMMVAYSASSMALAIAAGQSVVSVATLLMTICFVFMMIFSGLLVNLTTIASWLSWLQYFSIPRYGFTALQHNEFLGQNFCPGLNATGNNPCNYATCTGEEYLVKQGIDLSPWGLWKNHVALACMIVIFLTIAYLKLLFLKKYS
# Chain of UniProt P33261 (whole entry, looked up): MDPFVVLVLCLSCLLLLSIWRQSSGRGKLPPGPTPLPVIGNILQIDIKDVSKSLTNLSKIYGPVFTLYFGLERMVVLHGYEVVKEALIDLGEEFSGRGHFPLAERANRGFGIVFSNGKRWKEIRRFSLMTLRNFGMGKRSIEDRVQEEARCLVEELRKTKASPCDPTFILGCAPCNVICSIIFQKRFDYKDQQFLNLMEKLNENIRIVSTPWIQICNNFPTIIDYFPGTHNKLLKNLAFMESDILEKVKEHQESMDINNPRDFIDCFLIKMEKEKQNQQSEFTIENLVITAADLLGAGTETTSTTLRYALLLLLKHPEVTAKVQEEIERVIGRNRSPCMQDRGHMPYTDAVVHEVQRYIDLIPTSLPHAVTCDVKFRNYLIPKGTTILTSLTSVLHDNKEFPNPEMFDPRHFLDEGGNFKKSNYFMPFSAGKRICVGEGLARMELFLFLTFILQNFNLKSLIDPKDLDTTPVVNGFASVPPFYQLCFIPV
# Chain of UniProt Q9NPD5 (whole entry, looked up): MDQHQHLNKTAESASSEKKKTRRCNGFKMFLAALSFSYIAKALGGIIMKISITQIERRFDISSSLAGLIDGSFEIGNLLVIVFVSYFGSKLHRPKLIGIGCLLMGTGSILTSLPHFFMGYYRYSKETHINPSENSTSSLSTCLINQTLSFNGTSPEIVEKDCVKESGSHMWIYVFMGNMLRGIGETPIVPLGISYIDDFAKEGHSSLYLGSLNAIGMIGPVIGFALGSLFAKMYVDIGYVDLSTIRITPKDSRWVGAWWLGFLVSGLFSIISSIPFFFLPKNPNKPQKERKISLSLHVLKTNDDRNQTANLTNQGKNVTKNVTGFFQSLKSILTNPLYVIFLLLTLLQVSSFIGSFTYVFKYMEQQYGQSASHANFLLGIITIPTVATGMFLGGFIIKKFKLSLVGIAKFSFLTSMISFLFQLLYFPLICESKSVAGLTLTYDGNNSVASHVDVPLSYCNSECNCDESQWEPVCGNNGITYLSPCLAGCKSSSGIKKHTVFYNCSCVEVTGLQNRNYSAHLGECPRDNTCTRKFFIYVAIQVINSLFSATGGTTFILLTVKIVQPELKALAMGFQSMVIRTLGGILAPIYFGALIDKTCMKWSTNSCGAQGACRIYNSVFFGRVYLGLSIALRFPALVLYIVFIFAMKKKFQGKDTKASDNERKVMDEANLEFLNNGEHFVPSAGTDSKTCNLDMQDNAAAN
# Chain of UniProt Q05421 (whole entry, looked up): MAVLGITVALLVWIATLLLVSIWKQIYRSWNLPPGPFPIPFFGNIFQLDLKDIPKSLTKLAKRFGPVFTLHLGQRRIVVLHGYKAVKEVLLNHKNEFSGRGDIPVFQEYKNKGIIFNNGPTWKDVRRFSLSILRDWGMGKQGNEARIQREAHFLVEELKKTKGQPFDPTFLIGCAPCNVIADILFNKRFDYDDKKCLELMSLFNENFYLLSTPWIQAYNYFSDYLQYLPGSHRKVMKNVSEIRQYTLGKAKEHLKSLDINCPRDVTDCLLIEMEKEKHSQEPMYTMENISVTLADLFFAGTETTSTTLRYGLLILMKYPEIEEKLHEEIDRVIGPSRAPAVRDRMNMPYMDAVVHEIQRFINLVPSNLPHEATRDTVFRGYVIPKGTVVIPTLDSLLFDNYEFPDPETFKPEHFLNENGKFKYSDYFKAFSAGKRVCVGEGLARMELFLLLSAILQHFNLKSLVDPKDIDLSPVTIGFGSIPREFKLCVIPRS
Compound,tested on,assay,system,setting,how to read,measurement,result
CC(C)CC(=O)OC[C@H]1O[C@@](C#N)(c2ccc3c(N)ncnn23)[C@H](O)[C@@H]1O,"Cytochrome P450 2C19 (CYP2C19, Homo sapiens, UniProt P33261)",metabolic stability,recombinant enzyme,1 µM,,intrinsic clearance,0 µL/min/pmol
C=CC(O)CO (centres unmarked),"Cytochrome P450 2E1 (Cyp2e1, Mus musculus, UniProt Q05421)","4-nitrophenol hydroxylation, inhibitor","B6C3F1 mouse, liver microsomes","25 mM, 30 min, with: 4-nitrophenol 50 µM",,remaining activity,15%
CCC(CC)COC(=O)[C@H](C)N[P@](=O)(OC[C@H]1O[C@@](C#N)(c2ccc3c(N)ncnn23)[C@H](O)[C@@H]1O)Oc1ccccc1,SLC47A2,"transport, inhibitor",transiently transfected cells,"100 µM, 10 (unit not given), with: thiamine",,inhibition,68.6%
O=C(O)C(F)(F)C(F)(F)C(F)(F)C(F)(F)C(F)(F)C(F)(F)C(F)(F)F,"Solute carrier organic anion transporter family member 1B3 (SLCO1B3, Homo sapiens, UniProt Q9NPD5)","uptake, substrate","CHO cells stably expressing SLCO1B3, HBSS with HEPES",pH 7.4,,CLint,29.4 ± 11.4 µL/min/mg
CCCC[C@@H]1NC(=O)[C@H](Cc2ccc(O)cc2)NC(=O)[C@@H]2CCCN2C(=O)[C@H](CC(=O)O)NC(=O)[C@H](C)NC(=O)[C@H](Cc2ccccc2)NC(=O)[C@@H]2CSCCC(=O)N3CN(CN(C3)C(=O)CCSC[C@@H](C(=O)N[C@@H](C)C(N)=O)NC1=O)C(=O)CCSC[C@H](NC(C)=O)C(=O)N[C@@H](CC(C)(C)C)C(=O)N1CCC[C@H]1C(=O)N[C@@H](CCC(=O)O)C(=O)N[C@H](CCCCNC(=O)CCc1cn(CCOCCOCCOCCOCCOCCC(=O)N[C@H]3CSCCC(=O)N4CN5CN(C4)C(=O)CCSC[C@H](NC(=O)[C@@H](CCC(=O)O)NC(=O)[C@H](Cc4cccc6ccccc46)NC(=O)[C@@H]4CCCN4C3=O)C(=O)N[C@@H](CC(C)C)C(=O)N[C@@H](CCCCNC(=N)N)C(=O)N[C@@H](CC(=O)O)C(=O)N[C@@H](Cc3c[nH]c4ccccc34)C(=O)N[C@@H](CO)C(=O)N[C@@H]([C@@H](C)O)C(=O)N3CCC[C@H]3C(=O)N3C[C@H](O)C[C@H]3C(=O)N[C@@H](Cc3c[nH]c4ccccc34)C(=O)N[C@H](C(N)=O)CSCCC5=O)nn1)C(=O)N1CCC[C@H]1C(=O)N[C@@H](Cc1ccc(O)cc1)C(=O)N2,Tumor necrosis factor receptor superfamily member 9/Nectin-4,"reporter gene, agonist, luciferase reporter",CD137 Jurkat reporter with HT-1376,"6 h, geometric mean",reference: wells without compound,Emax,41 fold
O=C1CCC(N2C(=O)c3ccccc3C2=O)C(=O)N1 (centres unmarked),"Broad substrate specificity ATP-binding cassette transporter ABCG2 (ABCG2, Homo sapiens, UniProt Q9UNQ0)","transport, inhibitor",,"100 µM, 5 (unit not given), pH 7, with: CCK-8",,inhibition,19%
CCCC[C@@H]1NC(=O)[C@H](Cc2ccc(O)cc2)NC(=O)[C@@H]2CCCN2C(=O)[C@H](CCC(=O)O)NC(=O)[C@H](C)NC(=O)[C@H](Cc2ccccc2)NC(=O)[C@@H]2CSCCC(=O)N3CN(CN(C3)C(=O)CCSC[C@H](NC(C)=O)C(=O)N[C@@H](CC(C)(C)C)C(=O)N3CCC[C@H]3C(=O)N[C@@H](CCC(=O)O)C(=O)N[C@H](CCCCNC(=O)CCc3cn(CCOCCOCCOCCOCCOCCC(=O)N[C@H]4CSCCC(=O)N5CN6CN(C5)C(=O)CCSC[C@H](NC(=O)[C@@H](CC(=O)O)NC(=O)[C@H](Cc5cccc7ccccc57)NC(=O)[C@@H]5CCCN5C4=O)C(=O)N[C@@H](CCSC)C(=O)N[C@@H](CCCCNC(=N)N)C(=O)N[C@@H](CC(=O)O)C(=O)N[C@@H](Cc4c[nH]c5ccccc45)C(=O)N[C@@H](CO)C(=O)N[C@@H]([C@@H](C)O)C(=O)N4CCC[C@H]4C(=O)N4C[C@H](O)C[C@H]4C(=O)N[C@@H](Cc4c[nH]c5ccccc45)C(=O)N[C@H](C(N)=O)CSCCC6=O)nn3)C(=O)N3CCC[C@H]3C(=O)N[C@@H](Cc3ccc(O)cc3)C(=O)N2)C(=O)CCSC[C@@H](C(N)=O)NC1=O,Tumor necrosis factor receptor superfamily member 9/Nectin-4,"reporter gene, agonist, luciferase reporter",CD137 Jurkat reporter with HT-1376,"6 h, geometric mean",reference: wells without compound,Emax,2 fold
Cc1ccc2nc(C3CCCN(Cc4cccc(-c5cccnc5)c4)C3)[nH]c(=O)c2c1 (centres unmarked),Vero-E6,CellTiter-Glo ATP,,"concentration not given, 72 h, second round 5-point","reference: DMSO 0%, hyamine -100%, more negative, more toxic",cytotoxicity efficacy,0%
CC1(C)[C@H](C=C(Cl)Cl)[C@H]1C(=O)OCc1cccc(Oc2ccccc2)c1,CES2 human cytosolic,,,"0.1 µM, age 1 year",,enzyme contribution,9.07%
O=C(Nc1cccc(Cl)c1)C1CCCN(Cc2cccc(-c3ccc(F)cc3F)c2)C1 (centres unmarked),Vero-E6,CellTiter-Glo ATP,,"concentration not given, 72 h, first round 5-point","reference: DMSO 0%, hyamine -100%, more negative, more toxic",cytotoxicity efficacy,0%
CCCCCCCCc1ccc(CCC(N)(CO)CO)cc1,SLC47A2,"transport, inhibitor",transiently transfected cells,"100 µM, 10 (unit not given), with: thiamine",,inhibition,8.8%

# For quick reference, copied from above:
Compound,tested on,assay,system,setting,how to read,measurement,result
CCC(CC)COC(=O)[C@H](C)N[P@](=O)(OC[C@H]1O[C@@](C#N)(c2ccc3c(N)ncnn23)[C@H](O)[C@@H]1O)Oc1ccccc1,SLC47A2,"transport, inhibitor",transiently transfected cells,"100 µM, 10 (unit not given), with: thiamine",,inhibition,68.6%
O=C1CCC(N2C(=O)c3ccccc3C2=O)C(=O)N1 (centres unmarked),"Broad substrate specificity ATP-binding cassette transporter ABCG2 (ABCG2, Homo sapiens, UniProt Q9UNQ0)","transport, inhibitor",,"100 µM, 5 (unit not given), pH 7, with: CCK-8",,inhibition,19%
